Measurements gathered from unrelated publications.
A part holds a random share of what one study measured. Substitutions count along the parent as printed.

Block 1
Target: RING finger protein unkempt homolog, zinc fingers 1-6, SBP tag (UNK, Homo sapiens, UniProt Q9C0B0, residues 30-357)
Chain of UniProt Q9C0B0 (30-357, looked up): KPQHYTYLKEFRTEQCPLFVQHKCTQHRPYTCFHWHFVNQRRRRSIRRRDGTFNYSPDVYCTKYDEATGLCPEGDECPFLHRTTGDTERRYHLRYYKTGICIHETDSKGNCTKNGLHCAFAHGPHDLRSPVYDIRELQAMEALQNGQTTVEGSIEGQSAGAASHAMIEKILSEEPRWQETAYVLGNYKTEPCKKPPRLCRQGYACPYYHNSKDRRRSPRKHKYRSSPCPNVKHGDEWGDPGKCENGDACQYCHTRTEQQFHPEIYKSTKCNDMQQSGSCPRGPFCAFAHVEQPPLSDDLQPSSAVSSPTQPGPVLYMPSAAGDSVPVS
Technique: RNA Bind-n-Seq
Molecule type: RNA
Sample: in vitro
Tested at: 100 nM
Setting: RNA with constant flanks, vertebrate orthologous sites, ends assumed
Relative to: input RNA pool
Reading: higher = stronger binding
Endpoint: bound/input enrichment
Constant ends, left off below: GGGAGUUCUACAGUCCGACGAUC … CAACAGAGGAUUGAGCAUCA
CCCUCUGAACCCCAUAUCUUCUGUUUCAUAAUGCAGAAGUAUUCUUUUCAAUUAUAUCAUUAGUGGACUUGUUUUAAUUUUAGAGAAACUUUGAGUACAGAUACUGUGAGCUUACAUGGA: 2.39 ratio
AAUGGUGGUUGUAUAUUCUCAAUUUGAUUUAUAUAAUGAAAAGAUUAAUUGCUUUGAAUCUGGGGACUGAAGUGGAGCAGCACAGGAUGGAUGAAUUGUGCCCUCCUGUGGGUUUUUUUU: 0.259 ratio
GAGCUAAAGGAGUUAGCAUCUUUAUUUUUGUAUCAAAGAUAAAGGUUAUUUUGAAAUUAUCAGGAUUUUUACACAACUCUGAAAUCUGUUGCUUUUGUAAACCAAUUGUUUGAUCUUAGG: 0.363 ratio
UCAACUCAGGUUUUAUUUAUUUUGAAAUCAUCGGUUAUAUAAACCUAAUUUAUUACCAAAUAUGAUGGUCUUUAAAAAUAUUUUUACUGUUGAAACUUACGUAGGUAUUUGAUAUCCUUU: 0.0763 ratio
CAAUUCGAUGGUCGAGGGUUCAGAACUCAAAAAGGUUCGCUCCAACUCCAGGAUUUACCAUAGGUAUUUUUUACUGGAUGCUGACAUGCAGAGCCUGAGGUGGGAACCAUCUAAGAAAGA: 0.141 ratio
UUGUGAGGAAGGGGAAAGACUAGAUUCUUCUCUUCCCAAGUAAAACUGAAAUAAUCUGCUUUUAUUUCUGUCUUGGAAAACAAAGAUGGCCUUUUCUCUUAAUUGUGUAACAAUACCAUC: 0.313 ratio
UAAUUAAUCAGUUGAAUUGUAUUCUUAUCAAAUGUAACAUUGUGUAGCUUUUGUAUAAAACCAAGAAUUGGAGAAGUCCAAAUAUCAGCUCUCUUGCUUUAAUGAAAUCACCAGUUUUGU: 0.344 ratio
GCCCUAAACUAGCUUUGAACUGUAGUGCUGUUGAGCUGGUUCAUAAGUUGGUAUUGGGAAUUUAGACCCUUGAUUUCUCUACUGCUGCUGACCAGAGAGAUAGCGAUUACAACCAGGAAC: 0.45 ratio
AGGACUUCUAAUAGGCAAAUUCAGGGAGAGAGAGGCUUCAGGGAAUAUGAAUUUAUAUAGUAGUGAUUAUGAAGUAUAACCUUGAUAUAAUGGAAUGAUUUGGGGGAGUGAUGACAACUU: 4.78 ratio
UGUCUCCGUGGAGCCUGGGAGCAUCCGUGCUGCCGGGGGCUCUUACUUUGUUUUCUUUUCCUCGGGGUGGGGGUGGGUCGUGGUGCCCACCGUGCUGAGGCGUCAGCGUGGGUGGUGGGU: 0.143 ratio
AAGAACUCUUGCAGUCUUACAUGUUAUAAAAAAUAUGUAUAUCUGAAUUGUAAGAGUUGUUAGCACAGGUUUUUUUUUUUUUUUUAAGCACUUGUUUUGGGUACAAGGCAUGUCUGAAAU: 0.675 ratio

Block 2
Target: Interferon regulatory factor 7, full length, phosphomimetic (IRF7, Homo sapiens, UniProt Q92985, residues 1-503, S101K/S471D/S472D/S475D/S476D/S477D/S483D/S484D/S487D)
Technique: protein-binding microarray
Molecule type: double-stranded DNA, one strand shown
Sample: in vitro
Tested at: 250 nM
Setting: 60-bp whole probe
Together with: salmon DNA 0.4 mg/ml
Relative to: random background probes
Reading: higher = stronger binding
Endpoint: log fluorescence
Constant ends, left off below: GCCTAGCAC … GTCTTGATTCGCTTGACGCTGCTG
Construct (chain): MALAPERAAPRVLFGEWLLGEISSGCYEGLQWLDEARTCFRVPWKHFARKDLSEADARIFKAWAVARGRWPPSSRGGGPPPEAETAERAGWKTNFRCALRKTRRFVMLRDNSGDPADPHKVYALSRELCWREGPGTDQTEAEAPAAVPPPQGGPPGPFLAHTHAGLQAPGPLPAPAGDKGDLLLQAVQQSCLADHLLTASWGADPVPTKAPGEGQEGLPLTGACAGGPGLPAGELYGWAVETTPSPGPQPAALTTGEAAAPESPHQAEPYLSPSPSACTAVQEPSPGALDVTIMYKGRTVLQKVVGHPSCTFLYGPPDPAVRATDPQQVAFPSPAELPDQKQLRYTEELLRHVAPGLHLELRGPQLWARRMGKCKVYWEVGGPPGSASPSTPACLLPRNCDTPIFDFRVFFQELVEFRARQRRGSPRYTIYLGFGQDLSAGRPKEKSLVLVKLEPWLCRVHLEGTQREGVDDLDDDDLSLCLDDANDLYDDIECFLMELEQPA
TTAGACCTGAGTATCGATTAGTGCTAG: 0.815 z-score
TTAGGTATCGACACTGGGGTAGTGCTA: -0.0578 z-score
GACGGACTGGGTCACGGGACGTGCTAG: -0.639 z-score
TTAGATTTCGGGTAACGATTAGTGCTA: 0.821 z-score
GACGGTATCGGGTATCGGGGCGTGCTA: 0.206 z-score
TCATTTTTATCAAATGTGACTGTGCTA: 0.686 z-score
TTAGGTACCGACACTGGGTTAGTGCTA: -0.133 z-score
GACGCTCTCAGTCTCGAGACGTGCTAG: 0.673 z-score
ACCCGTACTGGGTCTGGATCGTGCTAG: -0.391 z-score
TTAGGTTTCGTCACTGGGTTAGTGCTA: 1.68 z-score
GGTCTTTCTGTTTTCTCCATGTGCTAG: 1.78 z-score
GACGATATCGGGTATCGAGGCGTGCTA: -0.25 z-score
TTAGAAGTGGGGACTGGATTAGTGCTA: -0.665 z-score
GGCGAACTGAGTTTCGAGACGTGCTAG: 3.33 z-score
GACCATATCAGTTTCGAGACGTGCTAG: 4.49 z-score
GACGAAATGAGTTTCGAGACGTGCTAG: 3.93 z-score
TTAGGTACCGACTATCGGTTAGTGCTA: 0.379 z-score

Block 3
Target: Protein max, full length (MAX, Homo sapiens, UniProt P61244-2, residues 1-151)
Technique: protein-binding microarray
Molecule type: double-stranded DNA, one strand shown
Sample: in vitro
Tested at: not given
Setting: k-mer, scored over probes, only values ≥0.25
Reading: higher = stronger binding
Endpoint: E-score
GAGCACGC: 0.438
ACACGATG: 0.296
ACGCGTAT: 0.283
GGGTCACA: 0.261
ACATGCGT: 0.447
GTGAAACA: 0.255
CGTGGAGA: 0.37
CCCTCCCA: 0.28
GTGCTCTA: 0.256
CATCGTGG: 0.364
CGCCTGAC: 0.26
GAACGTGC: 0.387
CGATCACA: 0.284
ACATGGGA: 0.363
ACGTGAGT: 0.354
CGCATGTC: 0.424
ACATGCAT: 0.378
CACATGGG: 0.473
CAGGTGTC: 0.322
TAGTCACA: 0.324
CACATGCA: 0.469
AAACACGC: 0.411
CGTGGTCC: 0.392
ACGCTGGA: 0.27

Block 4
Target: Histone acetyltransferase KAT6A, both winged helices, GST fusion (KAT6A, Homo sapiens, UniProt Q92794, residues 1-181)
Technique: protein binding microarray
Molecule type: double-stranded DNA, one strand shown
Sample: in vitro
Tested at: not given
Setting: 8-mer, flanks averaged, mean of 2 arrays, mostly near background
Relative to: not given
Reading: higher = stronger binding
Endpoint: E-score
Target sequence (chain): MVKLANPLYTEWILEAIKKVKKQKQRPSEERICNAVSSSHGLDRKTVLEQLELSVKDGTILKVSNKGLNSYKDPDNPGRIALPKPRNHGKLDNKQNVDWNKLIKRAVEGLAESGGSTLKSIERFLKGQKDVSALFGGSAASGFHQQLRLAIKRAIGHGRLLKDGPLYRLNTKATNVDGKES
TGCCTCAA: -0.148
AGATAGAA: -0.186
TAGATGGA: -0.209
CCGGGTGC: 0.237
AATGTGGT: -0.11
CATAAGTC: -0.0893
ACCGAGAT: 0.00217
ACTTGGCA: -0.324
CAGTCATA: -0.192
TCCCGGGA: 0.318
GCCGGACC: 0.119
ACGATACT: 0.0277
CCGTAATC: 0.187
AATGGGTC: -0.128
AATTCCAT: -0.0662
GTCGATCA: -0.137
CCAGGGTA: -0.0788
CGCATGTA: 0.151
GGAACTGA: -0.00245
CCATGTGA: -0.174
GCGGTTAA: 0.21

Block 5
Target: MAFK, bZIP domain (human)
Technique: DHFR protein complementation
Sample: yeast
Setting: single substitutions, most at no-binding floor
Relative to: wild-type JUN-FOS pair
Reading: higher = stronger binding
Endpoint: binding fitness
Starting sequence: JUN, bZIP domain (human); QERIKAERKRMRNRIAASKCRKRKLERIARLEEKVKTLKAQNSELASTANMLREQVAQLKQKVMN; partner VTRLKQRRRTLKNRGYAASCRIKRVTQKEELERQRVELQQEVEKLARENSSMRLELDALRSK
A29F: -1.69 natural log
V35P: -1.52 natural log
K36R: -1.45 natural log
A49D: -1.47 natural log
I28K: -1.51 natural log
L59G: -1.42 natural log
V56D: -1.48 natural log
L59H: -1.53 natural log
L38Y: -1.46 natural log
A57Y: -1.45 natural log
R53M: -1.57 natural log
E54W: -1.51 natural log
V56Q: -1.46 natural log
L38Q: -1.48 natural log
T37K: -1.45 natural log
A29H: -1.56 natural log
V56S: -1.54 natural log
A29Q: -1.44 natural log
A57L: -1.53 natural log
V35G: -1.51 natural log
Q41S: -1.53 natural log
E33F: -1.5 natural log

Block 6
Target: CCND3, cyclin fold, Cln2 fusion (human)
Technique: yeast growth competition, sequencing
Sample: yeast
Setting: weak parent motif
Relative to: not given
Reading: higher = stronger binding
Endpoint: normalised enrichment score
Starting sequence: RBL1 docking peptide (human); GSAKRRLFGEDPP
GSAKRRLFGEVPP [D11V]: 0.0798
GSAKRILFGEDPP [R6I]: 0.143
GSAKRRLFGEDPV [P13V]: 0.206
GSAKRRLFGEDYP [P12Y]: 0.114
GSAKRRLFGTDPP [E10T]: 0.123
GSAKDRLFGEDPP [R5D]: 0.0918
GSASRRLFGEDPP [K4S]: 0.0918
GCAKRRLFGEDPP [S2C]: 0.209
GHAKRRLFGEDPP [S2H]: 0.161
GSAKRRLFGEDPG [P13G]: 0.0766
GSAKRRLFGEFPP [D11F]: 0.033
GSAKRRYFGEDPP [L7Y]: 0.0527
GSAIRRLFGEDPP [K4I]: 0.141
GSAKRRLGGEDPP [F8G]: 0.0477
GSAKRRLFGEDPL [P13L]: 0.113
GSAKRRLEGEDPP [F8E]: 0.0826
GSAKRRLFGEDPA [P13A]: 0.13
GSAKRRLFMEDPP [G9M]: 0.131
GSAKQRLFGEDPP [R5Q]: 0.14
GSAKRRLFWEDPP [G9W]: 0.209
GSAKKRLFGEDPP [R5K]: 0.0257
GSAKRRLFGMDPP [E10M]: 0.205
GSAKSRLFGEDPP [R5S]: 0.161
GSACRRLFGEDPP [K4C]: 0.132
GSAKRRLFGEDPW [P13W]: 0.195

For quick reference, copied from above (block 2):
TTAGAAGTGGGGACTGGATTAGTGCTA: -0.665 z-score
GGTCTTTCTGTTTTCTCCATGTGCTAG: 1.78 z-score
TTAGGTATCGACACTGGGGTAGTGCTA: -0.0578 z-score
ACCCGTACTGGGTCTGGATCGTGCTAG: -0.391 z-score
GGCGAACTGAGTTTCGAGACGTGCTAG: 3.33 z-score
GACGAAATGAGTTTCGAGACGTGCTAG: 3.93 z-score
TTAGACCTGAGTATCGATTAGTGCTAG: 0.815 z-score
GACGGTATCGGGTATCGGGGCGTGCTA: 0.206 z-score
GACGCTCTCAGTCTCGAGACGTGCTAG: 0.673 z-score
GACGATATCGGGTATCGAGGCGTGCTA: -0.25 z-score
TTAGGTTTCGTCACTGGGTTAGTGCTA: 1.68 z-score
TCATTTTTATCAAATGTGACTGTGCTA: 0.686 z-score
